Published values pooled from the literature.
Lines come from different studies, so protocols differ. ± marks the error that the study gave.
Matrix: plasma

SMILES | test system | conditions | measurement | result
Cc1ccccc1-c1cc(N2CC[N+](C)([O-])CC2)ncc1N(C)C(=O)C(C)(C)c1cc(C(F)(F)F)cc(C(F)(F)F)c1 | healthy volunteers | oral, dose not given | Tmax | 4.64 to 5.57 h
NC(=O)c1cnc2[nH]ccc2c1NC1C2CC3CC1CC(OS(=O)(=O)O)(C3)C2 (centres unmarked) | Japanese adults, normal hepatic function | oral, 150 mg single dose | Tmax (median) | 1.5 h
CC(C)(Sc1ccncc1-c1ccc(C#N)c2ccccc12)C(=O)OC1OC(C(=O)O)C(O)C(O)C1O (centres unmarked) |  | oral, 15 mg, moderate renal impairment, fasted | Tmax | 2 h
Cn1cc(C(N)=O)c(NC2C3CC4CC2CC(OS(=O)(=O)O)(C4)C3)c2ccnc1-2 (centres unmarked) | Japanese adults, mild hepatic impairment | oral, 150 mg single dose | Tmax (median) | 3 h
Cc1ccc([C@@H]2O[C@H](CO)[C@@H](O)[C@H](O)[C@H]2O)cc1Cc1ccc(-c2ccc(F)cc2)s1 | albino rabbit | oral or sublingual | Tmax | 2.91 ± 0.35 h
CC(=O)N[C@H](CC(=O)O)C(=O)N[C@H](Cc1c[nH]c2ccccc12)C(=O)N[C@H](Cc1ccccc1)C(=O)N[C@H](CCCCN)C(=O)N[C@H](C)C(=O)N[C@H](Cc1ccccc1)C(=O)N[C@H](Cc1ccc(O)cc1)C(=O)N[C@H](CC(=O)O)C(=O)N[C@H](CCCCN)C(=O)N[C@@H](C(=O)N[C@H](C)C(=O)N[C@H](CCC(=O)O)C(=O)N[C@H](CCCCN)C(=O)N[C@H](Cc1ccccc1)C(=O)N[C@H](CCCCN)C(=O)N[C@H](CCC(=O)O)C(=O)N[C@H](C)C(=O)N[C@H](Cc1ccccc1)C(N)=O)C(C)C | statin-treated high-risk CHD patients | oral, 100 mg daily, day 13, mean, detected subjects | Tmax | 2.25 h
COc1cc(C)c(Cc2ccc(O)cc2)cc1[C@@H]1S[C@H](CO)[C@@H](O)[C@H](O)[C@H]1O | Japanese T2DM patients | 0.5 mg luseogliflozin, day 7, once daily | Tmax | 2.07 ± 0.932 h
CN1CCN(c2cc(-c3ccccc3CO)c(N(C)C(=O)C(C)(C)c3cc(C(F)(F)F)cc(C(F)(F)F)c3)cn2)CC1 | healthy volunteers | oral, dose not given | Tmax | 10.5 to 16.7 h
CC(C)(Sc1cc[n+]([O-])cc1-c1ccc(C#N)c2ccccc12)C(=O)OC1OC(C(=O)O)C(O)C(O)C1O (centres unmarked) |  | oral, 15 mg, mild renal impairment, fasted | Tmax | 3 h
Cc1ccccc1-c1cc(N2CCNCC2)ncc1N(C)C(=O)C(C)(C)c1cc(C(F)(F)F)cc(C(F)(F)F)c1 | healthy volunteers | oral, dose not given, netupitant-palonosetron fixed-dose combination | Tmax | 9.85 h
Cn1cc(C(N)=O)c(NC2C3CC4CC2CC(O)(C4)C3)c2ccnc1-2 (centres unmarked) | Japanese adults, normal hepatic function | oral, 150 mg single dose | Tmax (median) | 3.5 h
